# Experimental data from different studies.
# Protocols differ between the studies behind these lines. Several values in a cell are separate wells, animals, samples, runs or records. ± marks the error that the study gave.
Compound,assay,system,conditions,how to read,endpoint,result
CC(C)(CCCC/C=C/CCCCCC(C)(C)C(=O)O)C(=O)O,,"beagle dog, both sexes","oral, dose not given, 7 h",,plasma concentration,12100 ng/mL
C(#Cc1cncc(OC[C@@H]2CCN2)c1)c1ccccc1,,"male Sprague-Dawley rat, plasma","oral, 75 mg/kg, 3 h",,concentration,360 ng/mL
CCc1nn(C)c2nc(-c3ccc(C(=O)O)cc3)nc(NCc3ccccc3)c12,,NSG mice,"dose not given, day 5",,body weight,23.1 g and 20.9 g and 20.8 g and 22.3 g
C#Cc1c(F)ccc2cc(O)cc(-c3ncc4c(N5CC6CCC(C5)N6C(=O)OC(C)OC(=O)CC56CC7CC(CC(C7)C5)C6)nc(OC[C@@]56CCCN5C[C@H](F)C6)nc4c3F)c12 (some centres unmarked),refers to: prodrug,mouse whole blood,1 µM,,t1/2,2.32 h
CN1Cc2cc(Cl)ccc2-n2c(nnc2C2CCN(c3cccc(F)n3)CC2)C1,,"Sprague-Dawley rats male, brainstem","intravenous, 0.03 mg/kg, 30 min",,concentration,2.9 ± 0.31 ng/mL
CCCC[C@@H]1NC(=O)[C@H](Cc2ccc(O)cc2)NC(=O)[C@@H]2CCCN2C(=O)[C@H](CC(=O)O)NC(=O)[C@H](C)NC(=O)[C@H](Cc2ccccc2)NC(=O)[C@@H]2CSCCC(=O)N3CN(CN(C3)C(=O)CCSC[C@@H](C(=O)N[C@@H](C)C(N)=O)NC1=O)C(=O)CCSC[C@H](NC(C)=O)C(=O)N[C@@H](CC(C)(C)C)C(=O)N1CCC[C@H]1C(=O)N[C@@H](CCC(=O)O)C(=O)N[C@H](CCCCNC(=O)CCc1cn(CCOCCOCCOCCN(CCOCCOCCOCCC(=O)N[C@H]3CSCCC(=O)N4CN5CN(C4)C(=O)CCSC[C@H](NC(=O)[C@@H](CC(=O)O)NC(=O)[C@H](Cc4cccc6ccccc46)NC(=O)[C@@H]4CCCN4C3=O)C(=O)N[C@@H](CCSC)C(=O)N[C@@H](CCCCNC(=N)N)C(=O)N[C@@H](CC(=O)O)C(=O)N[C@@H](Cc3c[nH]c4ccccc34)C(=O)N[C@@H](CO)C(=O)N[C@@H]([C@@H](C)O)C(=O)N3CCC[C@H]3C(=O)N3C[C@H](O)C[C@H]3C(=O)N[C@@H](Cc3c[nH]c4ccccc34)C(=O)N[C@H](C(N)=O)CSCCC5=O)CCOCCOCCOCCn3cc(CCC(=O)NCCCC[C@H]4NC(=O)[C@H](CCC(=O)O)NC(=O)[C@@H]5CCCN5C(=O)[C@H](CC(C)(C)C)NC(=O)[C@@H](NC(C)=O)CSCCC(=O)N5CN6CN(C5)C(=O)CCSC[C@H](NC(=O)[C@H](Cc5ccc(O)cc5)NC(=O)[C@@H]5CCCN5C4=O)C(=O)N[C@@H](Cc4ccccc4)C(=O)N[C@@H](C)C(=O)N[C@@H](CC(=O)O)C(=O)N4CCC[C@H]4C(=O)N[C@@H](Cc4ccc(O)cc4)C(=O)N[C@@H](CCCC)C(=O)N[C@H](C(=O)N[C@@H](C)C(N)=O)CSCCC6=O)nn3)nn1)C(=O)N1CCC[C@H]1C(=O)N[C@@H](Cc1ccc(O)cc1)C(=O)N2,,Sprague-Dawley rat,,,unbound clearance,41 mL/min/kg
CC(=O)N[C@H](C(=O)N[C@@H](CCCC(=O)OC(C)(C)C)C(=O)N[C@@H](CCC1CCCCC1)C(=O)N[C@@H](CC(=O)O)C(=O)COC(=O)c1c(C)cccc1C)C(C)(C)C,,"C57BL/6N mouse, serum","concentration not given, together with: LPS",,AST,630 U/L and 440 U/L and 432 U/L and 568 U/L and 346 U/L and 482 U/L
N#[11C]c1ccc(-c2csc(NN=C3CCCC3)n2)cc1,,"C57BL/6 mice, male, bone","intravenous, 3 MBq, 60 min",,radioactivity uptake,0.84 ± 0.4 %ID/g
O=C(CN1C(=O)C2(CCN(C(=O)c3ccc4[nH]ncc4c3)CC2)c2c(Br)cccc21)NCC(F)(F)F,,mouse liver microsomes,,,CLint,30 µL/min/mg protein
N=C(N)NCCC[C@H](NC(=O)[C@H](CCCNC(=N)N)NC(=O)[C@H](CCCNC(=N)N)NC(=O)[C@H](CCC(N)=O)NC(=O)[C@H](CCCNC(=N)N)NC(=O)[C@H](CCCNC(=N)N)NC(=O)[C@H](CCCCN)NC(=O)[C@H](CCCCN)NC(=O)[C@H](CCCNC(=N)N)NC(=O)CNC(=O)[C@H](Cc1ccc(O)cc1)NC(=O)[C@H](Cc1ccccc1)NC(=O)[C@H](Cc1ccccc1)NC(=O)[C@H](Cc1ccccc1)NC(=O)OCC1c2ccccc2-c2ccccc21)C(=O)O,,C57BL/6 mice,"intraperitoneal, 5 mg/kg, 12 h",direction not given,health score,5
O=C1NC2(CC2)COc2ncc(F)cc2[C@H]2COCCN2c2ccn3ncc1c3n2,,"Sprague-Dawley rat, male, spleen","oral, 10 mg/kg/day, 4 weeks, end of treatment",,organ-to-body weight ratio,0.386 ± 0.168%
CC[C@H](C)[C@H](NC(=O)[C@H](CCCCN)NC(=O)CNC(=O)[C@H](CC(C)C)NC(=O)[C@H](Cc1ccccc1)NC(=O)[C@H](CCCCN)NC(=O)[C@H](CO)NC(=O)[C@H](Cc1ccccc1)NC(=O)[C@H](Cc1c[nH]c2ccccc12)NC(=O)[C@H](CCC(N)=O)NC(=O)[C@@H](NC(=O)[C@H](Cc1ccccc1)NC(=O)CCCCCNC(=O)CN1CCN(CC(=O)O)CCN(CC(=O)O)CCN(CC(=O)O)CC1)C(C)C)C(=O)N[C@@H](CCC(=O)O)C(=O)N1CCC[C@H]1C(=O)N[C@@H](CC(=O)O)C(=O)N[C@H](C(=O)N[C@@H](CO)C(=O)N[C@@H](CCC(N)=O)C(=O)N[C@H](C(=O)N[C@@H](CCC(N)=O)C(=O)N[C@@H](CC(=O)O)C(=O)N1CCC[C@H]1C(=O)N[C@@H](CC(N)=O)C(=O)N[C@@H](CC(=O)O)C(=O)N[C@@H](CCC(N)=O)C(=O)N[C@@H](Cc1ccc(O)cc1)C(=O)N[C@@H](CCC(=O)O)C(=O)N1CCC[C@H]1C(=O)N[C@@H](Cc1ccccc1)C(=O)O)C(C)C)C(C)C [copper-64 labelled],dynamic PET,"mouse, CT26 tumour, checkpoint inhibitor-treated, tumour","intravenous, 100 µCi/mouse, 1500 s",,SUVmean,4.65 SUV
CSCC[C@H](N)C(=O)N[C@@H](C)C(=O)N[C@@H](CCCNC(=N)N)C(=O)N[C@@H](CCCNC(=N)N)C(=O)N[C@@H](CC(=O)O)C(=O)N[C@@H](CCCCN)C(=O)N[C@H](C(=O)N[C@@H](CC(=O)O)C(=O)N[C@@H](Cc1ccccc1)C(=O)N[C@@H](C)C(=O)N[C@@H](CCCNC(=N)N)C(=O)N[C@@H](CCCNC(=N)N)C(=O)N[C@@H](CCCNC(=N)N)C(=O)N[C@@H](CCCNC(=N)N)C(=O)NCCCCCC(=O)NCCCCC(NC(=O)CCCCCNC(=O)[C@H](CCCNC(=N)N)NC(=O)[C@H](CCCNC(=N)N)NC(=O)[C@H](CCCNC(=N)N)NC(=O)[C@H](CCCNC(=N)N)NC(=O)[C@H](C)NC(=O)[C@H](Cc1ccccc1)NC(=O)[C@H](CC(=O)O)NC(=O)[C@@H](NC(=O)[C@H](CCCCN)NC(=O)[C@H](CC(=O)O)NC(=O)[C@H](CCCNC(=N)N)NC(=O)[C@H](CCCNC(=N)N)NC(=O)[C@H](C)NC(=O)[C@@H](N)CCSC)[C@@H](C)O)C(=O)NCCCCC(NC(=O)C(CCCCNC(=O)CCCCCNC(=O)[C@H](CCCNC(=N)N)NC(=O)[C@H](CCCNC(=N)N)NC(=O)[C@H](CCCNC(=N)N)NC(=O)[C@H](CCCNC(=N)N)NC(=O)[C@H](C)NC(=O)[C@H](Cc1ccccc1)NC(=O)[C@H](CC(=O)O)NC(=O)[C@@H](NC(=O)[C@H](CCCCN)NC(=O)[C@H](CC(=O)O)NC(=O)[C@H](CCCNC(=N)N)NC(=O)[C@H](CCCNC(=N)N)NC(=O)[C@H](C)NC(=O)[C@@H](N)CCSC)[C@@H](C)O)NC(=O)CCCCCNC(=O)[C@H](CCCNC(=N)N)NC(=O)[C@H](CCCNC(=N)N)NC(=O)[C@H](CCCNC(=N)N)NC(=O)[C@H](CCCNC(=N)N)NC(=O)[C@H](C)NC(=O)[C@H](Cc1ccccc1)NC(=O)[C@H](CC(=O)O)NC(=O)[C@@H](NC(=O)[C@H](CCCCN)NC(=O)[C@H](CC(=O)O)NC(=O)[C@H](CCCNC(=N)N)NC(=O)[C@H](CCCNC(=N)N)NC(=O)[C@H](C)NC(=O)[C@@H](N)CCSC)[C@@H](C)O)C(N)=O)[C@@H](C)O (some centres unmarked),,"C57BL/6 mouse female, brain","dose not given, 3 h",reference: total,mean tissue distribution,0.28%
CSCC[C@H](NC(=O)CNC(=O)[C@H](CCCCN)NC(=O)[C@H](CC(C)C)NC(=O)[C@@H]1CCCN1C(=O)[C@H](CO)NC(=O)[C@H](Cc1c[nH]cn1)NC(=O)[C@H](Cc1c[nH]c2ccccc12)NC(=O)[C@H](CCCNC(=N)N)NC(=O)[C@H](CC(C)C)NC(=O)[C@H](CCCNC(=N)N)NC(=O)[C@H](Cc1c[nH]c2ccccc12)NC(=O)[C@H](CS)NC(=O)CCCCCNC(=O)CN1CCN(CC(=O)O)CCN(CC(=O)O)CCN(CC(=O)O)CC1)C(=O)O [copper-64 labelled],,"male C57BL/6J mice, B16-F10 tumour, intestinal lymph node","intravenous, 1.85 MBq, 30 h",,tissue uptake,0.87 %ID/g
CCCCC(=O)N[C@H]1[C@H]([C@H](O)[C@H](O)CO)OC(C(=O)OC)=C[C@@H]1O,shake flask,aqueous buffer,"2 h, pH 7.4",,logD,0.15
CC(=O)N(Cc1ccccc1)[C@@H](C)C(=O)N(CCO)[C@@H](C)C(=O)N(Cc1c[nH]c2cc(Cl)ccc12)[C@@H](C)C(=O)N(CCO)[C@@H](C)C(=O)N(CCC(C)(C)C)[C@@H](C)C(N)=O,,PAMPA,"10 µM, 4 h, pH 7.4",,Papp,0.14 ×10⁻⁶ cm/s
COc1cnc2cccc(N3CCc4c(cc(Cn5ccnc5)cc4-c4cn(C)nc4C(F)(F)F)C3=O)c2c1,,"BALB/c nude mice, MV4-11 xenograft","intraperitoneal, 75 mg/kg, day 10",,body weight,23.2 g and 23.8 g and 22.4 g and 24.3 g and 23.6 g and 23 g and 24.8 g and 23.4 g
COc1ccc(CNc2ccc3c(c2)S(=O)(=O)C=C3)cc1,flow cytometry,"male C57BL/6 mice, spleen","i.p., 5 mg/kg, 8 days",reference: splenocytes,CD45+ cells,78.4%
Cc1ccccc1-c1ccc(-c2nc(-c3ccc(CN(C)CCCC(=O)O)c([18F])c3)no2)cc1C(F)(F)F,,"rat, heart",30 min,,tracer uptake,0.38 %ID/g
CC(C)=CCC/C(C)=C/CCn1cc(CC(P(=O)(O)O)P(=O)(O)O)nn1,,"CD-1 mouse, plasma","intravenous, 0.5 mg/kg, single dose",,AUC(0-t),1380 ± 140 ng·h/mL

# Excerpt of the above:
Compound,assay,system,conditions,how to read,endpoint,result
CCCCC(=O)N[C@H]1[C@H]([C@H](O)[C@H](O)CO)OC(C(=O)OC)=C[C@@H]1O,shake flask,aqueous buffer,"2 h, pH 7.4",,logD,0.15
CC(=O)N(Cc1ccccc1)[C@@H](C)C(=O)N(CCO)[C@@H](C)C(=O)N(Cc1c[nH]c2cc(Cl)ccc12)[C@@H](C)C(=O)N(CCO)[C@@H](C)C(=O)N(CCC(C)(C)C)[C@@H](C)C(N)=O,,PAMPA,"10 µM, 4 h, pH 7.4",,Papp,0.14 ×10⁻⁶ cm/s
